Experimental data pooled from the literature.
Lines come from different studies, so protocols differ. Values joined by “and” are separate records of one study, mostly repeats; a detail may differ. Numbers after ± are the reported error. Converted amounts (≈) assume the structure as drawn.
Organism: Escherichia coli

Cc1c(CN(C)C(=O)/C=C/c2cnc3c(c2)CC(NC(=O)OC(C)(C)C)C(=O)N3)oc2ccccc12 (stereo not shown)  MIC (broth microdilution; AR-0151): > 32 µg/mL
OC[C@H]1O[C@@H]2O[C@H]3[C@H](O)[C@@H](O)[C@@H](O[C@H]4[C@H](O)[C@@H](O)[C@@H](O[C@H]5[C@H](O)[C@@H](O)[C@@H](O[C@H]6[C@H](O)[C@@H](O)[C@@H](O[C@H]7[C@H](O)[C@@H](O)[C@@H](O[C@H]8[C@H](O)[C@@H](O)[C@@H](O[C@H]1[C@H](O)[C@H]2O)O[C@@H]8CO)O[C@@H]7CO)O[C@@H]6CO)O[C@@H]5CO)O[C@@H]4CO)O[C@@H]3CO  inhibition (LuxR reporter, antagonist; DH5α sensor strain; 1 µM, together with: OHHL 200 nM): -10 ± 7%
N=C(N)c1ccc(/N=N/Nc2ccc(C(=N)N)cc2)cc1  MIC90 (bacterial growth, inhibitor, OD600; E1; overnight): 377 ± 45 µM (≈ 106 µg/mL)
Nc1ccc2c(c1)B(O)OC2  post-antibiotic effect (ATCC 25922; 4xMIC, 1 h): 0.69 ± 0.06 h
COC(=O)[C@H]1[C@H]2C[C@@H]3c4[nH]c5cc(OC)ccc5c4CCN3C[C@H]2C[C@@H](OC(=O)c2cc(OC)c(OC)c(OC)c2)[C@@H]1OC  tetracycline MIC (checkerboard; tetracycline-resistant (pBR322); 64 µM, together with: tetracycline): 450 µM
CC(C)Oc1c(NC(=O)c2ccc(NC(=O)[C@H](CC(N)=O)NC(=O)c3ccc(NC(=O)c4ccc(C#N)cc4)cc3)cc2)ccc(C(=O)Nc2ccc(C(=O)O)cc2)c1O  bacterial load reduction below stasis (ATCC 25922, neutropenic mouse thigh infection; iv, 50 mg/kg/day): 2.44 log10 CFU/g
N#Cc1c(-c2ccc(OCc3ccccc3)cc2)c(C(N)=O)c(N)n(N)c1=O  viable count (time-kill; 1 x MIC, 120 min, 2 h): 0 CFU
N=C(N)c1ccc(OCc2ccc(COc3ccc(C(=N)N)cc3)cc2)cc1  MIC in combination (BW25113; concentration not given, lowest-FICI combination, together with: rifampicin): 25 µg/mL
C#CCCCC(=O)NCC  inhibition (LuxR reporter, antagonist; DH5α sensor strain; 40 µM, together with: OHHL 200 nM): 13 ± 1%
N=C(N)c1ccc(OCCC(CCOc2ccc(C(=N)N)cc2)c2ccccc2)cc1 (stereo not shown)  MIC in combination (ATCC 25922; concentration not given, together with: rifampicin): 6.25 µg/mL
C[C@@H](O)[C@H]1C(=O)N2C(C(=O)O)=C(SCCN=CN)C[C@H]12  bacterial load (2904, female ICR mice, peritonitis, peritoneal fluid; dose not given, 168 h): 4.12 log CFU and 4.52 log CFU and 4.22 log CFU and 4.43 log CFU and 3.82 log CFU and 3.52 log CFU
N=C(N)c1ccc(OCCS(=O)(=O)CCOc2ccc(C(=N)N)cc2)cc1  MIC in combination (BW25113; concentration not given, lowest-FICI combination, together with: erythromycin): 3.13 µg/mL
CC(=O)Oc1ccc(-c2c(C(N)=O)c(N)n(N)c(=O)c2C#N)cc1  viable count (time-kill; 1 x MIC, 0 h): 6.51 log CFU/mL
